Published values collected from several papers.
Each numbered part is a random draw from the data of one study; scales do not carry over between parts. “And” joins repeats or separate records; there may be more than shown. Positions count from the first letter of the parent shown.

Set 1 — target: CCND2, cyclin fold, Cln2 fusion (human); method: yeast growth competition, sequencing; sample: yeast; setting: strong parent motif; relative to: not given; reading: higher = stronger binding; parent: viral docking peptide; YKVKRRLVFGADD
| Change | normalised enrichment score |
| --- | --- |
| YKVKRRLTFGADD [V8T] | 1.89 |
| YKVKRRLKFGADD [V8K] | 0.708 |
| YKVKRRLVFGAQD [D12Q] | 1 |
| YKVKRRLVFGAED [D12E] | 1 |
| YKVKRRKVFGADD [L7K] | 0.738 |
| YKVKRRLVFGWDD [A11W] | 1.17 |
| YKVKRVLVFGADD [R6V] | 0.481 |
| YKVKPRLVFGADD [R5P] | 0.3 |
| YKVKRRLVFWADD [G10W] | 0.338 |
| YKVKRRLVFGFDD [A11F] | 1.24 |
| YKVKRSLVFGADD [R6S] | 0.234 |
| YKVWRRLVFGADD [K4W] | -0.0586 |
| YKVKRRLVFVADD [G10V] | 1.13 |
| YKVKRRLVGGADD [F9G] | 0.028 |
| YKVKRYLVFGADD [R6Y] | 0.0208 |
| YKVKRRLVSGADD [F9S] | 0.145 |
| YKVCRRLVFGADD [K4C] | 2.2 |
| YKWKRRLVFGADD [V3W] | -0.357 |
| YKVKRRYVFGADD [L7Y] | -0.168 |
| YKVKRRLVYGADD [F9Y] | 0.531 |
| YKVKRRLVFMADD [G10M] | 0.79 |
| YGVKRRLVFGADD [K2G] | 1.35 |
| YKVKRRLVFIADD [G10I] | 0.94 |
| YKVKRRLVFFADD [G10F] | 0.586 |
| YKVKRRLVFGLDD [A11L] | 1.37 |

Set 2 — method: RNA Bind-n-Seq; molecule type: RNA; sample: in vitro; tested at: 15 pmol; setting: 4-mer, random 30-nt RNA, single round; together with: 3 µM DMDA-PatA, 2 mM AMP-PNP; relative to: input library; reading: higher = stronger binding
Target: Eukaryotic initiation factor 4A-I (EIF4A1, Homo sapiens, UniProt P60842, residues 1-406, full length assumed)
UniProt P60842, sequence (whole entry, looked up): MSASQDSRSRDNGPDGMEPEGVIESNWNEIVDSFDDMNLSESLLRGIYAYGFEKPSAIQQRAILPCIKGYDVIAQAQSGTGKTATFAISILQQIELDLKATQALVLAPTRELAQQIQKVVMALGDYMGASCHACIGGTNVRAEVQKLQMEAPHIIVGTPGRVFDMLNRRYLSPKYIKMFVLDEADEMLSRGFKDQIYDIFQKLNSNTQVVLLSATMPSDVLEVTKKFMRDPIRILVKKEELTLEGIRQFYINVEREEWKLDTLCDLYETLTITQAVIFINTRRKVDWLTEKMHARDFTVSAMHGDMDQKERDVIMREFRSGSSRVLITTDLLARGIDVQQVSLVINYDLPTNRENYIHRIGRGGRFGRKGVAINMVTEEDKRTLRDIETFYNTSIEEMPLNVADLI
| Sequence | 4-mer enrichment [fold] |
| --- | --- |
| AGUA | 1.27 |
| UCGA | 1.29 |
| UUUC | 0.852 |
| AAUU | 1.16 |
| CCGC | 0.487 |
| GGGG | 1.33 |
| ACCG | 0.543 |
| AUCC | 0.521 |

Set 3 — Change: S63N; method: DHFR PCA, deep sequencing; sample: yeast; relative to: wild-type fitted maximum; reading: higher = stronger binding
Target: ABI1, truncated, D143A, DHFR fusion (Arabidopsis thaliana)
Setting: methotrexate growth selection, single substitutions
Parent: PYL1, truncated, DHFR fusion (Arabidopsis thaliana); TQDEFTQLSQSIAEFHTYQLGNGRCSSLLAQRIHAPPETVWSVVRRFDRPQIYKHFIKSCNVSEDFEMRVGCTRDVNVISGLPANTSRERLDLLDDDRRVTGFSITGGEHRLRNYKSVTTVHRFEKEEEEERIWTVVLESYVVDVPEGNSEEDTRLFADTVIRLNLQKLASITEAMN; partner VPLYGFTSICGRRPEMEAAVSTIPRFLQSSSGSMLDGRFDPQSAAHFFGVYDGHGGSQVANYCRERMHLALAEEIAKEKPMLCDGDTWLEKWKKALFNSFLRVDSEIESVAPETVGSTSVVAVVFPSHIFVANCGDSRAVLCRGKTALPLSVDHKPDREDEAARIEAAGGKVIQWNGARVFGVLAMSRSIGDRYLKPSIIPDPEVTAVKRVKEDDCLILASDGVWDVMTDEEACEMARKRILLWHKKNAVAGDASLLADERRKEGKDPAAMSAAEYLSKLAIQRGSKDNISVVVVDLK
| conditions | relative binding score [%] |
| --- | --- |
| together with: (+)-ABA 0.032 µM | 20.9 |
| together with: (+)-ABA 0.11 µM | 28.8 |
| together with: (+)-ABA 1.4 µM | 50.8 |
| together with: (+)-ABA 2500 µM | 97.6 |
| together with: (+)-ABA 0.0091 µM | 20.8 |
| together with: (+)-ABA 710 µM | 101 |

Set 4 — method: aptamer microarray, sandwich; molecule type: DNA with 2'F-ANA; sample: in vitro; tested at: 200 nM; together with: Cy3 exosite-II aptamer, 400 nM; reading: higher = stronger binding; sequence: GGTTGGTGTGGTTGG
Target: Prothrombin, mature alpha-thrombin (F2, Homo sapiens, UniProt P00734)
Setting: whole 15-mer aptamer, many near background
| Modification | mean fluorescence intensity [a.u.] |
| --- | --- |
| 2'F-ANA at 2 4 7 8 12 14 15 | 186 |
| 2'F-ANA at 2 4 5 7 8 9 10 11 12 14 15 | 47.4 |
| 2'F-ANA at 4 7 13 | 272 |
| 2'F-ANA at 1 4 7 8 9 10 14 15 | 50 |
| 2'F-ANA at 2 3 4 5 6 8 12 14 15 | 72 |
| 2'F-ANA at 2 4 8 9 10 11 12 15 | 103 |
| 2'F-ANA at 3 5 8 10 13 15 | 56.2 |
| 2'F-ANA at 3 4 5 6 7 8 11 | 101 |

Set 5 — method: protein-binding microarray; molecule type: double-stranded DNA, one strand shown; sample: in vitro; tested at: not given; reading: higher = stronger binding
Target: Max dimerization protein 1, bHLH-zipper, MAX partner unstated (MXD1, Homo sapiens, UniProt Q05195, residues 56-136)
Setting: k-mer, scored over probes, only values ≥0.25
Target sequence (chain): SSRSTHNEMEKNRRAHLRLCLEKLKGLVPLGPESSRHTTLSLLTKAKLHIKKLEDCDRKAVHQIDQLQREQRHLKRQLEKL
| Sequence | E-score |
| --- | --- |
| CTCATGGC | 0.371 |
| TAACCACA | 0.252 |
| GCACCCAC | 0.315 |
| CCCACGCG | 0.445 |
| CACGCATC | 0.276 |
| AGTGCATG | 0.307 |
| CTCGTGTC | 0.327 |
| CGCACGAG | 0.403 |

Mixed results
| Substance | target or system | assay | system | conditions | endpoint | value |
| --- | --- | --- | --- | --- | --- | --- |
| CCOc1ccc(Nc2c3c(nc4ccccc24)CCC3)cc1 | Leishmania donovani | parasite growth | DD8 amphotericin B-resistant, intracellular amastigotes | 40 µM | inhibition | 100% and 102% |
| AFDLSFFLK | HLA class I histocompatibility antigen, A alpha chain, allele A*80:01 (Homo sapiens, UniProt P04439) | peptide-MHC binding | peptide | concentration not given | binding | inactive |

Repeated from above (set 1):
| Change | normalised enrichment score |
| --- | --- |
| YKVKRRYVFGADD [L7Y] | -0.168 |
| YKVKRRLVYGADD [F9Y] | 0.531 |
| YKVKRRLVFMADD [G10M] | 0.79 |
| YGVKRRLVFGADD [K2G] | 1.35 |
| YKVKRRLVFIADD [G10I] | 0.94 |
| YKVKRRLVFFADD [G10F] | 0.586 |
